Results from different studies.
Each numbered part is a random draw from the data of one study; scales do not carry over between parts. Positions count from the first letter of the parent shown.

Block 1
Target: Phosphate system positive regulatory protein PHO4, full length, GST-tagged (PHO4, Saccharomyces cerevisiae, UniProt P07270, residues 1-312)
Method: competition protein-binding microarray
Molecule type: double-stranded DNA, one strand shown
Sample: in vitro
Tested at: 2 µM
Setting: whole 60-bp probe, lowest competitor level
Together with: Cbf1 competitor, 0.05 µM
Reading: higher = stronger binding
Residues (chain): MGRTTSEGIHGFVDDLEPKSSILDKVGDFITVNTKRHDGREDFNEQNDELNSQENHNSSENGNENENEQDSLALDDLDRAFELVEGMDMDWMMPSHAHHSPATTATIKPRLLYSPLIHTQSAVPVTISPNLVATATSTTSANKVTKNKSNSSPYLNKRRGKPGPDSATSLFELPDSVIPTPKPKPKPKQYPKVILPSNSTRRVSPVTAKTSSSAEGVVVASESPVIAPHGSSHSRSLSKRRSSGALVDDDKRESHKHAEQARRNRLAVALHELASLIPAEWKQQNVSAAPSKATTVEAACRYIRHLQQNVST
`TCATTTGGTGTCCATCACGTGGAATACCTCCCCTATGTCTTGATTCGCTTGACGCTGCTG` has a fluorescence intensity of 14600 a.u.
`TGCCTCTGCGCTTTGCACGTTCAAAAGAAAAGCATAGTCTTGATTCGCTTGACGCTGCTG` gave a fluorescence intensity of 9850 a.u.
`CGGGGTTAAGTTTTTCACGTGCTGTGCTTGCAGCAGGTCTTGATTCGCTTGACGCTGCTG` gave a fluorescence intensity of 12700 a.u.
`AGGTTGCCAGGGCTGCACGAGGAGTGGATTTCTGCTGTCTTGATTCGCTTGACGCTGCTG` has a fluorescence intensity of 11000 a.u.
With `AAAGCGGTAATTTGAAGCGTGGGTGCAGATATCTATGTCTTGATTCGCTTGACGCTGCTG` the fluorescence intensity was 9550 a.u.
For `AAAGCGGTAATTTGGGGGGTGGGTGCAGATATCTATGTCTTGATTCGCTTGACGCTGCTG`, the fluorescence intensity was 6280 a.u.
For `AAAGCGGTAATTTGAGCGGTGGGTGCAGATATCTATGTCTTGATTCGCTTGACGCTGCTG`, the fluorescence intensity was 3890 a.u.
`TTTGGGGTACGGAACAACGTGATTGGGAAGCTGCTCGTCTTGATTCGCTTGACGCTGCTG` has a fluorescence intensity of 9530 a.u.
For `CATACCCAACCTTGGCAGGTGGGTGAAGATATTTGTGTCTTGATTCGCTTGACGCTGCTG`, the fluorescence intensity was 7200 a.u.
The fluorescence intensity of `CGGGGTTAAGTTTGTCACCGGACTTGCTTGCAGCAGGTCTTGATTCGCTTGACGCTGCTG` is reported as 3560 a.u.
For `CAAACTCAGTACCGTCAGCTGACAACTGCACTTCAAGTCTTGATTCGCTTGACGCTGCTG`, the fluorescence intensity was 3230 a.u.
`TGCATTGTTAAAAAGCACGTCTATGTGGTCTTCCAGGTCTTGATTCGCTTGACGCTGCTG` gave a fluorescence intensity of 7250 a.u.
With `CTTTCCCGATCTTGTCACGTAACTTTAGCACATTTGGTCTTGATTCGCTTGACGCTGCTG` the fluorescence intensity was 5200 a.u.
The fluorescence intensity of `GTTTTGAATTCCCATCACAAAGGTTGACGAGCCGGCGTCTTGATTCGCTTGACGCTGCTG` is reported as 2500 a.u.
`TTATAATAAATAGTACACGTTGCAGACATATTTGGAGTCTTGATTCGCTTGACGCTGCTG` gave a fluorescence intensity of 13900 a.u.
The fluorescence intensity of `CTGGGCCTCCAGCGCCACGTGCCGCCGCTGGCACTGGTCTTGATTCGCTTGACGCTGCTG` is reported as 17700 a.u.
For `GCAGACGACTAAAGCCATGGTCAAGCCTGGTAATCCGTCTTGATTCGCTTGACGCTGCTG`, the fluorescence intensity was 2690 a.u.
For `CGATTGGAAACCCGTCACGTGGAAGTGAGTCTATTAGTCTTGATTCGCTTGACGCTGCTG`, the fluorescence intensity was 13700 a.u.
With `CGTCCTAGCGATTGATCAGTGGGTGCCATGAGGAAGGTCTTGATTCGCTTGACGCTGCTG` the fluorescence intensity was 6560 a.u.

Block 2
Target: ABI1, truncated, D143A, DHFR fusion (Arabidopsis thaliana)
Method: DHFR PCA, deep sequencing
Sample: yeast
Setting: methotrexate growth selection, single substitutions
Together with: (+)-ABA 0.032 µM
Reference: wild-type fitted maximum
Reading: higher = stronger binding
Starting sequence: PYL1, truncated, DHFR fusion (Arabidopsis thaliana); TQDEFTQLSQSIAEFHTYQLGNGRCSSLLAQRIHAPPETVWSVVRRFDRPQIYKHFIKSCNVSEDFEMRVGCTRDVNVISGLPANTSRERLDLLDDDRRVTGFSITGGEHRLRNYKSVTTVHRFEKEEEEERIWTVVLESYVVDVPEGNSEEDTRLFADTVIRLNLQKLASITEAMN; partner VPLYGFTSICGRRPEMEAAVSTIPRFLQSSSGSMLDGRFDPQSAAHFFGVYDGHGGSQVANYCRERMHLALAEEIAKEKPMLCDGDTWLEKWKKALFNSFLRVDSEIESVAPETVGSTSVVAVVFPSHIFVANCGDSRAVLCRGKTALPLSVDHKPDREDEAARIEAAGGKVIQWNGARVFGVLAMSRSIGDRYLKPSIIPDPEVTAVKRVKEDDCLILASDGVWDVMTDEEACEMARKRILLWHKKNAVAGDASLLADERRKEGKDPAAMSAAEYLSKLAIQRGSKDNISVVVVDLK
Under “relative binding score”, `G23I` is recorded as 2.31%.
`T160K`: “relative binding score” 3.96%.
For `G21S`, “relative binding score” read 26.8%.
For `D95K`, “relative binding score” read -1.07%.
For `L164G`, “relative binding score” read 5.65%.
Under “relative binding score”, `L28N` is recorded as -7.69%.
`Y18V` — result for “relative binding score”: 1.22%.
`R74A`: “relative binding score” 4.26%.
Under “relative binding score”, `L138Q` is recorded as 1.24%.
Under “relative binding score”, `Q51T` is recorded as -11.2%.
`E129A` — result for “relative binding score”: 47.2%.
For `G71Y`, “relative binding score” read -1.49%.
For `L138N`, “relative binding score” read -12.2%.
For `G148A`, “relative binding score” read 0.517%.
`V70G` — result for “relative binding score”: -0.788%.
For `T101P`, “relative binding score” read 0.915%.
`E127Y`: “relative binding score” 28.9%.
Under “relative binding score”, `P36K` is recorded as 9.02%.
Under “relative binding score”, `L156G` is recorded as 6.07%.
Under “relative binding score”, `E130K` is recorded as 50.5%.
For `I105S`, “relative binding score” read -0.722%.
For `E125F`, “relative binding score” read 27.8%.

Block 3
Target: UBE2E2 UBC core domain (UniProt Q96LR5)
Sequence of UniProt Q96LR5 (whole entry, looked up): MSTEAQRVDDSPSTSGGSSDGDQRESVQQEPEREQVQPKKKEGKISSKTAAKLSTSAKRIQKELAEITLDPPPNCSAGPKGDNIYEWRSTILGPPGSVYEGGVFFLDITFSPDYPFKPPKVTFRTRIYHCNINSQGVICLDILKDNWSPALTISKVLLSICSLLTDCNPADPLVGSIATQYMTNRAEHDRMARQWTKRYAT
Method: yeast two-hybrid
Sample: yeast
Setting: mostly zero background
Reference: not given
Reading: higher = stronger interaction
B1: Ltn1 RING domain (UniProt Q6A009); chain VDKRFEGVEDCMICFSVIHGFNYSLPKKACRTCKKKFHSACLYKWFTSSNKSTCPLCRETFF
B2: RNF24 RING domain (UniProt Q9Y225); chain KVKELNLHELCAVCLEDFKPRDELGICPCKHAFHRKCLIKWLEVRKVCPLCNMPVLQLAQLH
B3: ZNRF3 RING domain (UniProt Q9ULT6); chain DTLSSSSTSDCAICLEKYIDGEELRVIPCTHRFHRKCVDPWLLQHHTCPHCRHNIIEQKGNP
B4: TRIM22 RING domain (UniProt Q8IYM9); chain KEVKMSPQEGQKRDVCEHHGKKLQIFCKEDGKVICWVCELSQEHQGHQTFRINEVVKECQEK
B5: TRIM48 RING domain (UniProt Q8IWZ4); chain ISQVFQRELTCPICMNYFIDPVTIDCGHSFCRPCFYLNWQDIPILTQCFECIKTIQQRNLKT
`B1 (Ltn1 RING domain)` — result for “lacZ reporter activity”: 0.
`B2 (RNF24 RING domain)` — result for “lacZ reporter activity”: 0.
Under “lacZ reporter activity”, `B3 (ZNRF3 RING domain)` is recorded as 0.
For `KEQLEKHNDICAICYQDMKSAVITPCSHFFHAGCLKKWLYVQETCPLCHCHLKNSSQLP (RNF145 RING domain (UniProt Q96MT1))`, “lacZ reporter activity” read 0.
For `KITELNPHLMCVLCGGYFIDATTIIECLHSFCKTCIVRYLETSKYCPICDVQVHKTRPLL (BMI1 RING domain (UniProt P35226))`, “lacZ reporter activity” read 0.
`B4 (TRIM22 RING domain)` — result for “lacZ reporter activity”: 0.
For `MDDQGCPRCKTTKYRNPSLKLMVNVCGHTLCESCVDLLFVRGAGNCPECGTPLRKSNFRV (MNAT1 RING domain (UniProt P51948))`, “lacZ reporter activity” read 0.
`B5 (TRIM48 RING domain)`: “lacZ reporter activity” 0.

Block 4
Target: CCNB3, cyclin fold, Cln2 fusion (human)
Method: yeast growth competition, sequencing
Sample: yeast
Setting: weak parent motif
Reference: not given
Reading: higher = stronger binding
Starting sequence: SAMHD1 docking peptide (human); ASKSRVQLFKDDP
Under “normalised enrichment score”, `R5E` is recorded as -0.201.
Under “normalised enrichment score”, `F9Y` is recorded as -0.0364.
Under “normalised enrichment score”, `K10F` is recorded as -0.419.
For `S4T`, “normalised enrichment score” read 0.122.
`K3P`: “normalised enrichment score” -0.117.
`F9W`: “normalised enrichment score” 0.0612.
`R5Y`: “normalised enrichment score” -0.042.
`K10W`: “normalised enrichment score” 0.249.
`V6F` — result for “normalised enrichment score”: 0.0451.
Under “normalised enrichment score”, `L8D` is recorded as -0.0528.
`K10H`: “normalised enrichment score” -0.0458.
For `L8G`, “normalised enrichment score” read -0.043.
For `F9P`, “normalised enrichment score” read -0.0349.
Under “normalised enrichment score”, `L8S` is recorded as 0.0881.
Under “normalised enrichment score”, `D11Y` is recorded as 0.0964.
For `V6Y`, “normalised enrichment score” read -0.0192.
`Q7W`: “normalised enrichment score” 0.0242.
Under “normalised enrichment score”, `D12P` is recorded as 0.0508.
`K10S`: “normalised enrichment score” 0.246.
`K10C`: “normalised enrichment score” 0.0688.
`Q7G`: “normalised enrichment score” 0.0199.
For `V6K`, “normalised enrichment score” read 0.115.
For `F9C`, “normalised enrichment score” read -0.0479.

Repeated from above (block 4):
`R5Y`: “normalised enrichment score” -0.042.
For `S4T`, “normalised enrichment score” read 0.122.
`K3P`: “normalised enrichment score” -0.117.
Under “normalised enrichment score”, `F9Y` is recorded as -0.0364.
For `V6Y`, “normalised enrichment score” read -0.0192.
`K10C`: “normalised enrichment score” 0.0688.
`V6F` — result for “normalised enrichment score”: 0.0451.
